{"data": "Experimental data gathered from unrelated publications", "Tripartite terminase subunit 3 C-terminal nuclease domain": "Tripartite terminase subunit 3, C-terminal nuclease domain (Human betaherpesvirus 5, UniProt P16732)", "note": "Each line is one published result; not all experiments were run side by side. ± marks the error that the study gave.", "chain of UniProt P16732 (whole entry, looked up)": "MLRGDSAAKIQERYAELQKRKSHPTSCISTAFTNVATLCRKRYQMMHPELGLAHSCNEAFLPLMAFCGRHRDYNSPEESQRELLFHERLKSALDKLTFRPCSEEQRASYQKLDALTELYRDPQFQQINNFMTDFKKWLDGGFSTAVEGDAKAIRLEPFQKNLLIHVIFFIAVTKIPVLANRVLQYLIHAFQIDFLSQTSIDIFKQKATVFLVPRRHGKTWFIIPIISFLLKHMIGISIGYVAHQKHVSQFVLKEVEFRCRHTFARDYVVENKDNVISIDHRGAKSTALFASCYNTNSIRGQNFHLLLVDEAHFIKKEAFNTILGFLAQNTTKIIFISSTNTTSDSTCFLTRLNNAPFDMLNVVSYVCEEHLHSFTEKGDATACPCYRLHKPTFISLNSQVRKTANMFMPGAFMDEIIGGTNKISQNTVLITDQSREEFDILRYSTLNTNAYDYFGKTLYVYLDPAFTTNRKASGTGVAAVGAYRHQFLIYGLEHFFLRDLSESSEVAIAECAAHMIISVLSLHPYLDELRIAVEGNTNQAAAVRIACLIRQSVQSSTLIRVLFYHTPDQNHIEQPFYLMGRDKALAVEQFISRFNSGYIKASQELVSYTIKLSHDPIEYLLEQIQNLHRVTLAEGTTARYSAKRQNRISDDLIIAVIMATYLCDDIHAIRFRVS", "chain of UniProt P06935 (whole entry, looked up)": "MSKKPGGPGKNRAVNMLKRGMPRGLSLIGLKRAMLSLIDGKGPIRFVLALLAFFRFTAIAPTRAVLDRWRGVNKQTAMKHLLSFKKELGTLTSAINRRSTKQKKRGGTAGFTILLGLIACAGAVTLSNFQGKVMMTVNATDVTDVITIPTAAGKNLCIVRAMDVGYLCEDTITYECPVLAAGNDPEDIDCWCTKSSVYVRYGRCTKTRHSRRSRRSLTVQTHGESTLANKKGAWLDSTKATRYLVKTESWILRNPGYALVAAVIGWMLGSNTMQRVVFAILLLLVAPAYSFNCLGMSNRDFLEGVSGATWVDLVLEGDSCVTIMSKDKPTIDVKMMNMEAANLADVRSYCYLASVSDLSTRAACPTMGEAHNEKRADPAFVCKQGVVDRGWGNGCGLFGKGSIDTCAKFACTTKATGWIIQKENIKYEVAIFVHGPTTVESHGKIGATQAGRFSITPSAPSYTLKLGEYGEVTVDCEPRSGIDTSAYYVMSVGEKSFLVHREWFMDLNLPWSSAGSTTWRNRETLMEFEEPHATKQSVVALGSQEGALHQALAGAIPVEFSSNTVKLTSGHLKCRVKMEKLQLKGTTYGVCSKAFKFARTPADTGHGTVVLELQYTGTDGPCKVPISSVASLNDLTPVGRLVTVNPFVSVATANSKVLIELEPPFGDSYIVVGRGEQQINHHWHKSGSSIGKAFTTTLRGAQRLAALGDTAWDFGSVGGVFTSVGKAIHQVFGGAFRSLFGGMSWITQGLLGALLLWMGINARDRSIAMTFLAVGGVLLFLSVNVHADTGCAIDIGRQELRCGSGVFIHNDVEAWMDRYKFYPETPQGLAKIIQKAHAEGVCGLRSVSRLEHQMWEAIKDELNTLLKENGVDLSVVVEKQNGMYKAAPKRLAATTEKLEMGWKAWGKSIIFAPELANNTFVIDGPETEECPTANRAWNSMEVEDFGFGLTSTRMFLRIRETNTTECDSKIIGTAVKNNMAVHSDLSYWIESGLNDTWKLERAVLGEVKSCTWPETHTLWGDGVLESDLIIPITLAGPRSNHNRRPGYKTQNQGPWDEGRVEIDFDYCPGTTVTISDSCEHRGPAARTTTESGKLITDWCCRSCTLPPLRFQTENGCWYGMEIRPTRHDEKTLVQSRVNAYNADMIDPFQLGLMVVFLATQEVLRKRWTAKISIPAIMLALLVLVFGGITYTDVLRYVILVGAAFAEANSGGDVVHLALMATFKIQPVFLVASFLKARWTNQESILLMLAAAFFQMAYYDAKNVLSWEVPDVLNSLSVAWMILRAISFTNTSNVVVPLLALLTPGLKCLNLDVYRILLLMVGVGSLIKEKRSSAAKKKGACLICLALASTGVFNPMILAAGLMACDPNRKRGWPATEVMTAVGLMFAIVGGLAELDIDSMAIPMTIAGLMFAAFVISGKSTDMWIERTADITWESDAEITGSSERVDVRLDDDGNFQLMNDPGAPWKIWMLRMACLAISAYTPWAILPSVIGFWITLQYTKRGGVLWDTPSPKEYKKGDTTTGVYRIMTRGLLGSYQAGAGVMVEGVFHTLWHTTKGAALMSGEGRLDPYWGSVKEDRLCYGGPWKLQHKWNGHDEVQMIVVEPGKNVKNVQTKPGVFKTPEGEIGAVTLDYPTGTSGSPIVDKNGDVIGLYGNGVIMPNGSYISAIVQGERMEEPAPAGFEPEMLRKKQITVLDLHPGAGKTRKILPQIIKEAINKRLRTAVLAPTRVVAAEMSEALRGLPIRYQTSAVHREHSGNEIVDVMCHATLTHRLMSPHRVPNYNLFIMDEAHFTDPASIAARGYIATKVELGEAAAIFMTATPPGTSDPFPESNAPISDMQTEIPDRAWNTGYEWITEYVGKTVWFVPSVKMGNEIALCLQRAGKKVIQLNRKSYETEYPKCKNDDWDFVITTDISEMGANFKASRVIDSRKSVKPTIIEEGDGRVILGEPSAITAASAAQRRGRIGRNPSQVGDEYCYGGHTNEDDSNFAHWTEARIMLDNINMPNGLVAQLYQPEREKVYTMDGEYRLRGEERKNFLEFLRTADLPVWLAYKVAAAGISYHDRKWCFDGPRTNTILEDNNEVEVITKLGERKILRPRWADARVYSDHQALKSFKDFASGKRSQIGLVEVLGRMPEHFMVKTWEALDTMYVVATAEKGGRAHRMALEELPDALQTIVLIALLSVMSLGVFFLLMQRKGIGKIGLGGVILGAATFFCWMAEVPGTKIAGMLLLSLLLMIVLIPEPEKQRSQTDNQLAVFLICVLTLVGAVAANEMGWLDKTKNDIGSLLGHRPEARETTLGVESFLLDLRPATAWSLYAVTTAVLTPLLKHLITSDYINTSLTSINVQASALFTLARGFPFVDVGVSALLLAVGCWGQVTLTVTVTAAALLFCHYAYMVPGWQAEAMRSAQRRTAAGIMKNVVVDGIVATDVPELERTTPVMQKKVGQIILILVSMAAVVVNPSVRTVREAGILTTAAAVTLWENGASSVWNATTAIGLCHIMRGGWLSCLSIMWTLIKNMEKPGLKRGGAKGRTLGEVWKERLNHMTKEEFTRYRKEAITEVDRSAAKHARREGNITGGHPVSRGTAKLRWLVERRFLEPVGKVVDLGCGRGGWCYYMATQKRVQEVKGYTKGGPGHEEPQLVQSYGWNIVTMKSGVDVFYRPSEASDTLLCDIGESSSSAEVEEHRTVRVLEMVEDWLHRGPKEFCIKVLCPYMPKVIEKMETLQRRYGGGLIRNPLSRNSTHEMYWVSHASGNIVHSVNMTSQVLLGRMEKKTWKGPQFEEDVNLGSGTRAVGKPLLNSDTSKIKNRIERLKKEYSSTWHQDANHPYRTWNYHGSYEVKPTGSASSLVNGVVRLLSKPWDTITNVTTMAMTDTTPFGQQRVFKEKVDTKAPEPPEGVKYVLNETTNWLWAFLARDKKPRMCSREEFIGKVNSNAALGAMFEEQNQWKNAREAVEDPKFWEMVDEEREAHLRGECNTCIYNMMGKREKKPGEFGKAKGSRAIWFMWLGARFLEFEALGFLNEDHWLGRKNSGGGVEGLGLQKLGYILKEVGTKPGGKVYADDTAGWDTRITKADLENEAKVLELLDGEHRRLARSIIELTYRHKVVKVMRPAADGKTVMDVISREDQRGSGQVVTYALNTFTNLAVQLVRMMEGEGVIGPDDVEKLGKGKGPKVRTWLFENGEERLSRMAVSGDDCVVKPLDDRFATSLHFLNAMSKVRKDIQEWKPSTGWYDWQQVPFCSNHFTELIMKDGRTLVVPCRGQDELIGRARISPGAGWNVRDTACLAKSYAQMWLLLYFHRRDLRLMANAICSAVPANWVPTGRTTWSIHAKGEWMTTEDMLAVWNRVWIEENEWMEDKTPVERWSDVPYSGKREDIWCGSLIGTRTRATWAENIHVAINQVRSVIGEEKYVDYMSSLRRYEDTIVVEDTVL", "chain of UniProt P50613 (whole entry, looked up)": "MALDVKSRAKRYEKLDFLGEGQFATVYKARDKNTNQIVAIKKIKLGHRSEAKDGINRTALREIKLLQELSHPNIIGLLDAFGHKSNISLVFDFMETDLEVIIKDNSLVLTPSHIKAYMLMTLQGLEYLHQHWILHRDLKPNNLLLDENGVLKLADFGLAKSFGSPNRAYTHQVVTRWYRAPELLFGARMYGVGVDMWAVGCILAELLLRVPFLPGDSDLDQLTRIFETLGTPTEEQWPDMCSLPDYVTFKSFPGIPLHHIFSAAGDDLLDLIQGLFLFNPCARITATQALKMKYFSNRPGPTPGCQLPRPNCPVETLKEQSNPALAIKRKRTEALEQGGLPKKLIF", "chain of UniProt P19793 (whole entry, looked up)": "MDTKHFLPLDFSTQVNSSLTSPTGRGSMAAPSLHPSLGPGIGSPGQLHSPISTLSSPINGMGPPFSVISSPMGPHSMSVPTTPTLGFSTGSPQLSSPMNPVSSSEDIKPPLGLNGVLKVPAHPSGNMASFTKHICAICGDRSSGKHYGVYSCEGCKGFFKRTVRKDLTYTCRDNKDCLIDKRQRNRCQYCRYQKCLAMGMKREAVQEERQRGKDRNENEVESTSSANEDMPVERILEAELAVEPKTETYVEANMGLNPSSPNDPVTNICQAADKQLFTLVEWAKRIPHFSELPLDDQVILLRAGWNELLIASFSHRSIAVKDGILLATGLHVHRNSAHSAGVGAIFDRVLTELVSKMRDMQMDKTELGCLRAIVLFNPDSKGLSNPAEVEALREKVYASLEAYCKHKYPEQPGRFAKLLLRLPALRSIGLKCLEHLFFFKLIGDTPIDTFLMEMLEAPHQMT"}
{"Structure (SMILES)": "C[C@H]1CN(c2n[nH]c3nc(N[C@H]4CC[C@H](NS(=O)(=O)CCC(F)(F)F)CC4)ncc23)CCO1", "tested on": "Myosin-9 (MYH9, Homo sapiens, UniProt P35579)", "test": "inhibitor, Kinobeads competition profiling", "conditions": "20 µM", "how to read": "reference: vehicle", "quantity": "relative abundance", "result": 1.21}
{"Structure (SMILES)": "Cc1ccc(Nc2ccnc(N3CCC(C(=O)NCCCc4ccccc4)CC3)n2)cc1", "tested on": "Vero-E6", "test": "CellTiter-Glo ATP", "conditions": "concentration not given, 72 h, retest 8-point duplicates", "how to read": "reference: DMSO 0%, hyamine -100%, more negative, more toxic", "quantity": "cytotoxicity efficacy", "result": "-33.4%"}
{"Structure (SMILES)": "CN(C(=O)n1cnc(-c2ccc[n+]([O-])c2)c1)C1CCCCC1", "tested on": "dopamine D4.2 receptor, human", "test": "binding", "conditions": "10 µM, added: [3H]spiperone", "quantity": "inhibition", "result": "-2%"}
{"Structure (SMILES)": "Cc1ncc(C)n2nc(/C=C/c3nc(N4CCCC4)cc(N4CCOCC4)n3)nc12", "tested on": "Voltage-dependent N-type calcium channel subunit alpha-1B (Cacna1b, Rattus norvegicus, UniProt Q02294)", "test": "binding", "conditions": "10 µM", "quantity": "inhibition", "result": "-22%"}
{"Structure (SMILES)": "N#Cc1ccc(COc2cccc(C(=O)Nc3ccc4c(c3)B(O)OC4)c2)cc1", "tested on": "Genome polyprotein, NS2B-NS3 protease (West Nile virus, UniProt P06935)", "test": "enzyme activity, FRET", "conditions": "50 µM, added: substrate 50 µM", "quantity": "inhibition", "result": "≤ 10%"}
{"Structure (SMILES)": "CC(=O)NC1C[C@](OC2C(O)[C@H](Oc3ccc([N+](=O)[O-])cc3)OC(CO)[C@@H]2O)(C(=O)O)OC([C@H](O)[C@H](O)CO)[C@@H]1NC(C)=O (stereo partly drawn)", "tested on": "Sialidase A (nanA, Streptococcus pneumoniae, UniProt P62575)", "conditions": "8 µM, pH 6", "quantity": "inhibition", "result": "10 ± 2.3%"}
{"Structure (SMILES)": "COc1cc(Nc2ncc(F)c(Nc3ccc4c(n3)NC(=O)C(C)(C)O4)n2)cc(OC)c1OC", "tested on": "Cyclin-dependent kinase 7 (CDK7, Homo sapiens, UniProt P50613)", "test": "KINOMEscan", "conditions": "10 µM", "quantity": "inhibition", "result": "0%"}
{"Structure (SMILES)": "CCc1ccc(Sc2cc(C(=O)NCCCN3CCCC(C)C3)c3ccccc3n2)cc1 (stereo not drawn)", "tested on": "Vero-E6", "test": "CellTiter-Glo ATP", "conditions": "concentration not given, 72 h, retest 8-point duplicates", "how to read": "reference: DMSO 0%, hyamine -100%, more negative, more toxic", "quantity": "cytotoxicity efficacy", "result": "-18.7%"}
{"Structure (SMILES)": "Nc1ncnc2c1ncn2[C@@H]1O[C@H](C[C@@H](N)CC[C@H](N)C(=O)O)[C@@H](O)[C@H]1O", "tested on": "Genome polyprotein, NS5 methyltransferase domain (Zika virus, UniProt Q32ZE1)", "test": "NS5 enzyme activity, inhibitor", "conditions": "3.125 µM", "quantity": "inhibition", "result": "50.8%"}
{"Structure (SMILES)": "O=C(Nc1cnccc1Cl)N1CCN(Cc2ccc3c(c2)OC(F)(F)O3)CC1", "tested on": "Retinoic acid receptor RXR-alpha (RXRA, Homo sapiens, UniProt P19793)", "test": "radioligand binding, inhibitor", "conditions": "10 µM, human, added: [3H]9-cis-retinoic acid", "quantity": "inhibition", "result": "8%"}
{"Structure (SMILES)": "COc1ccc(N2C(=O)N(c3c(C)cccc3Cl)Cc3cnc(Nc4ccc(C5CCN(C)CC5)cc4OC)nc32)nc1", "tested on": "Aurora kinase C (AURKC, Homo sapiens, UniProt Q9UQB9)", "test": "kinase activity, inhibitor", "conditions": "0.5 µM, kinase AURORA-C", "quantity": "inhibition", "result": "6%"}
{"Structure (SMILES)": "O=C(Nc1ccc2c(c1)B(O)OC2)c1ccc(N2CCOCC2)cc1", "tested on": "Genome polyprotein, NS2B-NS3 protease (West Nile virus, UniProt P06935)", "test": "enzyme activity, FRET", "conditions": "50 µM, added: substrate 50 µM", "quantity": "inhibition", "result": "≤ 10%"}
{"Structure (SMILES)": "O=C1c2ccccc2C(c2ccccc2)C(=O)N1O (stereo not drawn)", "tested on": "Tripartite terminase subunit 3 C-terminal nuclease domain", "test": "endonuclease activity, ELISA", "conditions": "20 µM, added: dsDNA", "quantity": "inhibition", "result": "28%"}
{"Structure (SMILES)": "CN1CCN(c2cc(-c3ccncc3)c(-c3ccc4ccccc4c3)nn2)CC1", "tested on": "Adrenocorticotropic hormone receptor (MC2R, Homo sapiens, UniProt Q01718)", "test": "antagonist, FLIPR", "conditions": "10 µM", "quantity": "inhibition", "result": "21.9%"}
{"Structure (SMILES)": "Cc1sc2c(=O)n(O)c(=O)[nH]c2c1C", "tested on": "Tripartite terminase subunit 3 C-terminal nuclease domain", "test": "endonuclease activity, ELISA", "conditions": "20 µM, added: dsDNA", "quantity": "inhibition", "result": "100%"}
{"Structure (SMILES)": "O=C(Nc1cccnn1)N1CCC(=Cc2cccc(Oc3ccc(C(F)(F)F)cn3)c2)CC1", "tested on": "Adenosine receptor A1 (ADORA1, Homo sapiens, UniProt P30542)", "test": "binding", "conditions": "10 µM, added: [3H]DPCPX", "quantity": "inhibition", "result": "19%"}
{"Structure (SMILES)": "COC1=C(N)C(=O)c2nc(-c3nc(C(=O)O)c(C)c(-c4ccc(OC)c(OC)c4O)c3N)ccc2C1=O", "tested on": "Sentrin-specific protease 1 (SENP1, Homo sapiens, UniProt Q9P0U3)", "test": "RanGAP1-SUMO1 isopeptide cleavage, SDS-PAGE", "conditions": "2 µM, added: SENP1 5 nM", "quantity": "inhibition", "result": "inhibited"}
{"Structure (SMILES)": "CCCCCC(=O)Nc1ccc2c(c1)B(O)OC2", "tested on": "Genome polyprotein, NS2B-NS3 protease (dengue virus type 2, UniProt P29990)", "test": "enzyme activity, FRET", "test system": "dengue virus serotype 2", "conditions": "50 µM, added: substrate 50 µM", "quantity": "inhibition", "result": "≤ 10%"}
{"Structure (SMILES)": "Cn1cc(-c2cccc(N3CCc4c(sc5c4CC(C)(C)C5)C3=O)c2CO)cc(Nc2ccncn2)c1=O", "tested on": "Mitogen-activated protein kinase 14 (MAPK14, Homo sapiens, UniProt Q16539)", "test": "kinase activity, inhibitor, SelectScreen", "conditions": "1 µM, added: ATP", "quantity": "inhibition", "result": "3%"}
{"Structure (SMILES)": "O=C(Nc1ccc2c(c1)B(O)OC2)OCc1ccccc1", "tested on": "Genome polyprotein, NS2B-NS3 protease (dengue virus type 2, UniProt P29990)", "test": "enzyme activity, FRET", "test system": "dengue virus serotype 2", "conditions": "50 µM, added: substrate 50 µM", "quantity": "inhibition", "result": "≤ 10%"}
{"Structure (SMILES)": "Nc1c2c(nc3c1C(c1ccc(Cl)c(Cl)c1)c1ccc(OCC(=O)c4ccc(Cl)cc4)cc1O3)CCCC2 (stereo not drawn)", "tested on": "Amyloid-beta precursor protein (APP, Homo sapiens, UniProt P05067)", "test": "Aβ42 self-aggregation, inhibitor, thioflavin T fluorescence", "conditions": "0.01 µM", "quantity": "inhibition", "result": "18%"}
{"note": "Excerpt of the above:"}
{"Structure (SMILES)": "O=C(Nc1ccc2c(c1)B(O)OC2)OCc1ccccc1", "tested on": "Genome polyprotein, NS2B-NS3 protease (dengue virus type 2, UniProt P29990)", "test": "enzyme activity, FRET", "test system": "dengue virus serotype 2", "conditions": "50 µM, added: substrate 50 µM", "quantity": "inhibition", "result": "≤ 10%"}
{"Structure (SMILES)": "COc1ccc(N2C(=O)N(c3c(C)cccc3Cl)Cc3cnc(Nc4ccc(C5CCN(C)CC5)cc4OC)nc32)nc1", "tested on": "Aurora kinase C (AURKC, Homo sapiens, UniProt Q9UQB9)", "test": "kinase activity, inhibitor", "conditions": "0.5 µM, kinase AURORA-C", "quantity": "inhibition", "result": "6%"}
{"Structure (SMILES)": "CCc1ccc(Sc2cc(C(=O)NCCCN3CCCC(C)C3)c3ccccc3n2)cc1 (stereo not drawn)", "tested on": "Vero-E6", "test": "CellTiter-Glo ATP", "conditions": "concentration not given, 72 h, retest 8-point duplicates", "how to read": "reference: DMSO 0%, hyamine -100%, more negative, more toxic", "quantity": "cytotoxicity efficacy", "result": "-18.7%"}
{"Structure (SMILES)": "Nc1c2c(nc3c1C(c1ccc(Cl)c(Cl)c1)c1ccc(OCC(=O)c4ccc(Cl)cc4)cc1O3)CCCC2 (stereo not drawn)", "tested on": "Amyloid-beta precursor protein (APP, Homo sapiens, UniProt P05067)", "test": "Aβ42 self-aggregation, inhibitor, thioflavin T fluorescence", "conditions": "0.01 µM", "quantity": "inhibition", "result": "18%"}
